Experimental data pooled from the literature.
Partner: itself
B1: naaA 1-425 R289A (Bradyrhizobium sp., UniProt D3WZ85); chain MAGSNDVAKVMKTLDGMREGLIQTAVELGSIEAPTGREGAAGDYVYEWMARNGFGPERVGVFDDRFNVVGRLRGTGGGASLSFNSHLDTIMAREDTARFADANDRIYHEAWHEEGRIYGYSVVNCKGPMACWLIAAKALKEAGAALKGDVVLTAVCGEIDCEPVDEFQGHDYLAEDIGARYAISHGAISDYALVAEATNFKPAWVEAGKVFLKVTVFAGPSRYTPYVPRPVAALDSPNAIVRMAKLVEALEEWADNYEKRYTREYGGGTVVPKVAIGAIRGGVPYKIYAFPELCSIYMDIRLNPDTNPLVVQREVEAVVSKLGLKAEVKPFLFRRGYEAQGIEPLQNALEVAHREVVGRPTERPGSPECSMWRDTNPYNELGIPSLTYGCGGGAGGGNTYFLVDDMLKAAKVYAMTAMDLCNRTP
B2: dlg1 1-97 I34G/V37G (Drosophila melanogaster, UniProt P31007); sequence looked up; chain MPVKKQEAHRALELLEDYHARLSEPQDRALRIAGERGIRIFKSRLFQALLDIQEFYELTLLDDSKSIQQKTAETLQIATKWEKDGQAVKIADFIKSS
B3: SPOP K129E (Homo sapiens, UniProt O43791); sequence looked up; chain MSRVPSPPPPAEMSSGPVAESWCYTQIKVVKFSYMWTINNFSFCREEMGEVIKSSTFSSGANDKLKWCLRVNPKGLDEESKDYLSLYLLLVSCPKSEVRAKFKFSILNAKGEETKAMESQRAYRFVQGEDWGFKKFIRRDFLLDEANGLLPDDKLTLFCEVSVVQDSVNISGQNTMNMVKVPECRLADELGGLWENSRFTDCCLCVAGQEFQAHKAILAARSPVFSAMFEHEMEESKKNRVEINDVEPEVFKEMMCFIYTGKAPNLDKMADDLLAAADKYALERLKVMCEDALCSNLSVENAAEILILADLHSADQLKTQAVDFINYHASDVLETSGWKSMVVSHPHLVAEAYRSLASAQCPFLGPPRKRLKQS
B4: NINJ2 Q103F (Homo sapiens, UniProt Q9NZG7); sequence looked up; chain MESARENIDLQPGSSDPRSQPINLNHYATKKSVAESMLDVALFMSNAMRLKAVLEQGPSSHYYTTLVTLISLSLLLQVVIGVLLVVIARLNLNEVEKQWRLNFLNNAATILVFFTVVINVFITAFGAHKTGFLAARASRNPL
B5: Gm4951 S230A (Mus musculus, UniProt Q3UED7); sequence looked up; chain MGQLFSSRRSEDQDLSSSFIEYLKECEKGINIIPHEIITSIEINMKKGNIQEVNSTVRDMLREIDNTPLNVALTGETGSGKSSFINTLRGIGHEEGGAAHTGVTDKTKERHPYEHPKMPNVVFWDLPGTGSEDFQPKTYLEKMKFYEYDFFIIISATRFKKNDIDLAKAIGIMKKEFYFVRTQVDSDLRNEEDFKPQTFDREKVLQDIRLNCVNTFRENGIAEPPIFLIANKNVCHYDFPVLMDKLISDLPVFKRQNFMFSLPNITDSVIEKKRNFLRWKTWLEGFADGLLSFFLESDLETLEKSMKFYRTVFGVDDASLQRLARAWEIDQVDQVRAMIKSPAVFTPTDEETIQERLSRYNQEFCLANGYLLPKNHCREILYLKLYFLDMVTEDAKTLLKEICLRN
B6: Transcriptional regulator (NtrC family) 365-442 (Aquifex aeolicus, UniProt O66551); sequence looked up; chain EVIKPEDLGLKEKSWRDLSYLLKIKELKEAKKEFEKIFIEEKLREYDYDLKRTAEEIGIDLSNLYRKIKSLNIRVKSS
B7: ADAR1 127-end 127-1226 W1022A (human, UniProt P55265); sequence looked up; chain SSHFQELSIYQDQEQRILKFLEELGEGKATTAHDLSGKLGTPKKEINRVLYSLAKKGKLQKEAGTPPLWKIAVSTQAWNQHSGVVRPDGHSQGAPNSDPSLEPEDRNSTSVSEDLLEPFIAVSAQAWNQHSGVVRPDSHSQGSPNSDPGLEPEDSNSTSALEDPLEFLDMAEIKEKICDYLFNVSDSSALNLAKNIGLTKARDINAVLIDMERQGDVYRQGTTPPIWHLTDKKRERMQIKRNTNSVPETAPAAIPETKRNAEFLTCNIPTSNASNNMVTTEKVENGQEPVIKLENRQEARPEPARLKPPVHYNGPSKAGYVDFENGQWATDDIPDDLNSIRAAPGEFRAIMEMPSFYSHGLPRCSPYKKLTECQLKNPISGLLEYAQFASQTCEFNMIEQSGPPHEPRFKFQVVINGREFPPAEAGSKKVAKQDAAMKAMTILLEEAKAKDSGKSEESSHYSTEKESEKTAESQTPTPSATSFFSGKSPVTTLLECMHKLGNSCEFRLLSKEGPAHEPKFQYCVAVGAQTFPSVSAPSKKVAKQMAAEEAMKALHGEATNSMASDNQPEGMISESLDNLESMMPNKVRKIGELVRYLNTNPVGGLLEYARSHGFAAEFKLVDQSGPPHEPKFVYQAKVGGRWFPAVCAHSKKQGKQEAADAALRVLIGENEKAERMGFTEVTPVTGASLRRTMLLLSRSPEAQPKTLPLTGSTFHDQIAMLSHRCFNTLTNSFQPSLLGRKILAAIIMKKDSEDMGVVVSLGTGNRCVKGDSLSLKGETVNDCHAEIISRRGFIRFLYSELMKYNSQTAKDSIFEPAKGGEKLQIKKTVSFHLYISTAPCGDGALFDKSCSDRAMESTESRHYPVFENPKQGKLRTKVENGEGTIPVESSDIVPTADGIRLGERLRTMSCSDKILRWNVLGLQGALLTHFLQPIYLKSVTLGYLFSQGHLTRAICCRVTRDGSAFEDGLRHPFIVNHPKVGRVSIYDSKRQSGKTKETSVNWCLADGYDLEILDGTRGTVDGPRNELSRVSKKNIFLLFKKLCSFRYRRDLLRLSYGEAKKAARDYETAKNYFKKGLKDMGYGNWISKPQEEKNFYLCPV
B8: VPH1/STV1 chimera 1-123 (Saccharomyces cerevisiae); sequence looked up; chain MAEKEEAIFRSAEMALVQFYIPQEISRDSAYTLGQLGLVQFRDLNSKVRAFQRTFVNEIRRLDNVERQYRYFYSLLKKHDIKLYEGDTDKYLDGSGELYVPPSGSVIDDYVRNASYLEERLIQLDESLDSLRSKLNDLLEQRQVIFECSKFIEVNPGIAGRATNPEIEQEERDVDEFRMTPDDISETLSDAFSFDDETPQDRGALGNDLTRNQSVEDLSFLEQGYQHRYMITGSIRRTKVDILNRILWRLLRGNLIFQNFPIEEPLLEGKEKVEKDCFIIFTHGETLLKKVKRVIDSLNGKIVSLNTRSSELVDTLNRQIDDLQRILDTTEQTLESELYAIAKELDSWFQDVTREKAIFEILNKSNYDTNRKILIAEGWIPRDELATLQARLGEMIARLGIDVPSIIQVLD
B9: glyQ (Lactobacillus plantarum, UniProt Q88VS2); sequence looked up; chain MSKKLSVQEIILTLQKFWSDQGCMLMQSYDTEKGAGTMSPYTFLRAIGPEPWNAAYVEPSRRPADGRYGENPNRLYQHHQFQVVMKPSPENVQDLYLQSLEKLGINPLEHDIRFVEDNWENPSMGCAGVGWEVWLDGMEISQFTYFQQVGGLEVDPVTSEITYGLERLSSYIQDVNSVFDLEWGDGVKYGDIFLEPEFENSKYAFEDSNEELLLMLFDEYEKEAKRQIKNGLVHPAYDYCLKCSHTFNLMDARGMVSVTERAGYLDRIRNMAKSIAKEFVAQREKRGFPLLKHAQEETK
B10: CGAS 1-157 (Homo sapiens, UniProt Q8N884); chain MQPWHGKAMQRASEAGATAPKASARNARGAPMDPTESPAAPEAALPKAGKFGPARKSGSRQKKSAPDTQERPPVRATGARAKKAPQRAQDTQPSDATSAPGAEGLEPPAAREPALSRAGSCRQRGARCSTKPRPPPGPWDVPSPGLPVSAPILVRRD
B11: SPOP R121Q (Homo sapiens, UniProt O43791); sequence looked up; chain MSRVPSPPPPAEMSSGPVAESWCYTQIKVVKFSYMWTINNFSFCREEMGEVIKSSTFSSGANDKLKWCLRVNPKGLDEESKDYLSLYLLLVSCPKSEVRAKFKFSILNAKGEETKAMESQQAYRFVQGKDWGFKKFIRRDFLLDEANGLLPDDKLTLFCEVSVVQDSVNISGQNTMNMVKVPECRLADELGGLWENSRFTDCCLCVAGQEFQAHKAILAARSPVFSAMFEHEMEESKKNRVEINDVEPEVFKEMMCFIYTGKAPNLDKMADDLLAAADKYALERLKVMCEDALCSNLSVENAAEILILADLHSADQLKTQAVDFINYHASDVLETSGWKSMVVSHPHLVAEAYRSLASAQCPFLGPPRKRLKQS
B12: tas3 426-545 (Schizosaccharomyces pombe, UniProt O94687); sequence looked up; chain NPLASLTTDKNDLYINWLKSLSFFQTNSSCAEALVKVIPHYHNKLIDFSQVLQLVFSASEKFPIQENQPLPEQLMFLSNLEKQTPFAKAVGSSIYKLVTGKNLSLDFASQILKEASILEH
B13: Nlrp3 K970E/Q1001R/F1029A (Mus musculus, UniProt Q8R4B8); sequence looked up; chain MTSVRCKLAQYLEDLEDVDLKKFKMHLEDYPPEKGCIPVPRGQMEKADHLDLATLMIDFNGEEKAWAMAVWIFAAINRRDLWEKAKKDQPEWNDTCTSHSSMVCQEDSLEEEWMGLLGYLSRISICKKKKDYCKMYRRHVRSRFYSIKDRNARLGESVDLNSRYTQLQLVKEHPSKQEREHELLTIGRTKMRDSPMSSLKLELLFEPEDGHSEPVHTVVFQGAAGIGKTILARKIMLDWALGKLFKDKFDYLFFIHCREVSLRTPRSLADLIVSCWPDPNPPVCKILRKPSRILFLMDGFDELQGAFDEHIGEVCTDWQKAVRGDILLSSLIRKKLLPKASLLITTRPVALEKLQHLLDHPRHVEILGFSEAKRKEYFFKYFSNELQAREAFRLIQENEVLFTMCFIPLVCWIVCTGLKQQMETGKSLAQTSKTTTAVYVFFLSSLLQSRGGIEEHLFSDYLQGLCSLAADGIWNQKILFEECDLRKHGLQKTDVSAFLRMNVFQKEVDCERFYSFSHMTFQEFFAAMYYLLEEEAEGETVRKGPGGCSDLLNRDVKVLLENYGKFEKGYLIFVVRFLFGLVNQERTSYLEKKLSCKISQQVRLELLKWIEVKAKAKKLQWQPSQLELFYCLYEMQEEDFVQSAMDHFPKIEINLSTRMDHVVSSFCIKNCHRVKTLSLGFFHNSPKEEEEERRGGRPLDQVQCVFPDTHVACSSRLVNCCLTSSFCRGLFSSLSTNRSLTELDLSDNTLGDPGMRVLCEALQHPGCNIQRLWLGRCGLSHQCCFDISSVLSSSQKLVELDLSDNALGDFGIRLLCVGLKHLLCNLQKLWLVSCCLTSACCQDLALVLSSNHSLTRLYIGENALGDSGVQVLCEKMKDPQCNLQKLGLVNSGLTSICCSALTSVLKTNQNFTHLYLRSNALGDTGLRLLCEGLLHPDCKLQMLELDNCSLTSHSCWNLSTILTHNHSLRELNLGNNDLGDLCVVTLCEVLKQQGCLLQSLRLGEMYLNRETKRALEALQEEKPELTIVAEISW
B14: SIR4 744-1358 (Saccharomyces cerevisiae, UniProt P11978); sequence looked up; chain PGKMELVYVSDSDDSSSDNDSLTDLESLSSGESNEIKVTNDLDTSAEKDQIQAGKWFDPVLDWRKSDRELTKNILWRIADKTTYDKETITDLIEQGIPKHSYLSGNPLTSVTNDICSVENYETSSAFFYQQVHKKDRLQYLPLYAVSTFENTNNTEKNDVTNKNINIGKHSQEQNSSSAKPSQIPTVSSPLGFEETKLSTTPTKSNRRVSHSDTNSSKPKNTKENLSKSSWRQEWLANLKLISVSLVDEFPSELSDSDRQIINEKMQLLKDIFANNLKSAISNNFRESDIIILKGEIEDYPMSSEIKIYYNELQNKPDAKKARFWSFMKTQRFVSNMGFDIQKSCEPVSISTSVKPHVVEPEHMADAKIMPKDILQITKKPLMVKNVKPSSPPDVKSLVQLSTMETKTLPEKKQFDSIFNSNKAKIIPGNGKHASENISLSFSRPASYGYFSVGKRVPIVEDRRVKQLDDITDSNTTEILTSVDVLGTHSQTGTQQSNMYTSTQKTELEIDNKDSVTECSKDMKEDGLSFVDIVLSKAASALDEKEKQLAVANEIIRSLSDEVMRNEIRITSLQGDLTFTKKCLENARSQISEKDAKINKLMEKDFQVNKEIKPY
Sequence of UniProt Q9XBQ9 (whole entry, looked up): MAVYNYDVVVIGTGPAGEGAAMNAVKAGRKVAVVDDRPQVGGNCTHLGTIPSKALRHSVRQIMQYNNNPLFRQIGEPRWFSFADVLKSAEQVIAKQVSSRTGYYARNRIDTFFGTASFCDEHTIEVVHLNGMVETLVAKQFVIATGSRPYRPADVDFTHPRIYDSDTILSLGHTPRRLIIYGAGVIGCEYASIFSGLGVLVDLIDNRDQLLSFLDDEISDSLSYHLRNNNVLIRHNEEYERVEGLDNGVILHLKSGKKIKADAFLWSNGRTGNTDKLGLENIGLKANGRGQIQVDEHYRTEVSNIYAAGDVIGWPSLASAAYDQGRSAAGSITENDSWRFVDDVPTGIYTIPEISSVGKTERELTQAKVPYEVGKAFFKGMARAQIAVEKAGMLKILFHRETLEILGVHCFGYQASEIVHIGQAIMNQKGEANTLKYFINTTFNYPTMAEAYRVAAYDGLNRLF

Substance | method | with | binding
B1 (naaA 1-425 R289A) | crystal structure | Zn2+ | binds
B2 (dlg1 1-97 I34G/V37G) | SEC |  | binds
B3 (SPOP K129E) | negative-stain TEM |  | binds
B4 (NINJ2 Q103F) | negative-stain EM |  | binds
B5 (Gm4951 S230A) | mass photometry |  | binds
B6 (Transcriptional regulator) | X-ray crystallography |  | binds
sthA (Azotobacter vinelandii, UniProt Q9XBQ9) | cryo-EM |  | binds
B7 (ADAR1 127-end 127-1226 W1022A) | SEC |  | binds
B8 (VPH1/STV1 chimera 1-123) | SEC |  | binds
B9 (glyQ) | crystal structure |  | binds
B10 (CGAS 1-157) | NMR titration |  | binds
B11 (SPOP R121Q) | negative-stain TEM |  | binds
B12 (tas3 426-545) | crystal structure |  | binds
B13 (Nlrp3 K970E/Q1001R/F1029A) | sucrose gradient sedimentation, negative-stain EM |  | binds
B14 (SIR4 744-1358) | cross-linking mass spectrometry |  | binds

Excerpt of the above:
Substance | method | with | binding
B7 (ADAR1 127-end 127-1226 W1022A) | SEC |  | binds
